Published values gathered from unrelated publications.
Every numbered part comes from another study and shows a few of its results, in no order.

Series 1 — method: universal PBM; form: double-stranded DNA, one strand shown; sample: in vitro; concentration: not given; reading: higher = stronger binding
Target: Sal-like protein 4, full length isoform B (SALL4, Homo sapiens, UniProt Q9UJQ4-2, residues 1-616)
Setting: 8-mer, flanks averaged, mean of replicates
Sequence | E-score
AAGCTAGG | -0.245
CGCCGCGC | -0.351
AACACGTG | 0.082
CACCTCCG | -0.181
GAATGAAA | 0.16

Series 2 — method: protein-binding microarray; form: double-stranded DNA, one strand shown; sample: in vitro; concentration: 2540 nM top; setting: 60-bp whole probe; with: salmon DNA 0.4 mg/ml; reference: random background probes; reading: higher = stronger binding
Target: Interferon regulatory factor 3, full length, phosphomimetic (IRF3, Homo sapiens, UniProt Q14653, residues 1-427, S386D/S396D/S398D/S402D/T404D/S405D)
Sequence of UniProt Q14653 (whole entry, unmodified, looked up): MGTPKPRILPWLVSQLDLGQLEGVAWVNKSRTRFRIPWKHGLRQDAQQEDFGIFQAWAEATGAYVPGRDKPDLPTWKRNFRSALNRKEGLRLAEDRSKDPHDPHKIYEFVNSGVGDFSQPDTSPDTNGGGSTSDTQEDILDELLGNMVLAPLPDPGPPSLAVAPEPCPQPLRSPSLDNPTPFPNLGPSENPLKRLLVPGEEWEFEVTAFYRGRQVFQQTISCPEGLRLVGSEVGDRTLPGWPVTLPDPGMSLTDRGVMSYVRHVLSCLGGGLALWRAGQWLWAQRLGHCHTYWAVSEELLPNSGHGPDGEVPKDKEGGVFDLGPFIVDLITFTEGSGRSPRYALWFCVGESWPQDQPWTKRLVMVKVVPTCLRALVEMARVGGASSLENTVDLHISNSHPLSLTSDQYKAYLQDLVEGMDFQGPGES
Constant ends, left off below: GCCTAGCAC … GTGCTAGGTCTTGATTCGCTTGACGCTGCTG
Sequence | fitted relative affinity [z-score]
TCAAAAATCATTTTCTCACT | 1.19
TTAAGTTTCCTACTGCTTTA | 5.68
TCACTTTGCCTTTTGCTACT | 1.81
GACGGTATCCATCTCCTGAC | 5.17
GCAAATATATCAGTGAATTT | 0.111

Series 3 — method: RNA Bind-n-Seq; form: RNA; sample: in vitro; concentration: 20 nM; setting: 6-mer, flanks averaged, single round; with: 150 mM KCl; reference: input library; reading: higher = stronger binding
Target: TAR DNA-binding protein 43, full length, His tag (TARDBP, Homo sapiens, UniProt Q13148, residues 1-414)
Sequence | 6-mer enrichment (R)
CUAGAC | 0.633
CUCGGA | 0.806
AGGCCC | 0.783
AGAACU | 0.732
CGGUAA | 0.811

Further values, each from its own experiment
Molecule | target | test | test system | setting | how to read | measurement | result
PhoQ, residues 284 288 289 292 302 303 GNNTDL | PhoP, residues 12 14 15 18 19 SQCLL (Escherichia coli, UniProt P23836) | Sort-seq, refers to: YFP reporter | E. coli | PhoQ-PhoP variant library, with: 10 µM Mg2+ | reference: high Mg2+ state, higher = stronger signaling | fold induction | 2.31

A few entries again (series 2):
Sequence | fitted relative affinity [z-score]
TCAAAAATCATTTTCTCACT | 1.19
TTAAGTTTCCTACTGCTTTA | 5.68
